Measurements collected from several papers.
Numbered parts are unrelated; each lists some results of a single study. Substitutions count along the parent as printed.

Set 1
Target: CCNE1, cyclin fold, Cln2 fusion (human)
Technique: yeast growth competition, sequencing
Sample: yeast
Setting: strong parent motif
Reference: not given
Direction: higher = stronger binding
Parent: E2F1 docking peptide (human); PPVKRRLDLETDH; partner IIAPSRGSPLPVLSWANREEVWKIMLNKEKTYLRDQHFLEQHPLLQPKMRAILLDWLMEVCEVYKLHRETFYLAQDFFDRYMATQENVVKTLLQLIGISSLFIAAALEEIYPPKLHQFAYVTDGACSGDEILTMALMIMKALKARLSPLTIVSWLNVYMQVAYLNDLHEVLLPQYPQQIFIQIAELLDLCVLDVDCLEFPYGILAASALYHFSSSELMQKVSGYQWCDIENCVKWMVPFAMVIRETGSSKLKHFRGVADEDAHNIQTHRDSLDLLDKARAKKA
Variant	normalised enrichment score
R5V	-0.619
K4T	-0.678
E10M	1
R5M	0.132
T11R	0.818
T11P	2.92
R6P	-0.127
P1S	0.834
H13C	2.52
R5Q	0.125
R6T	1.08
V3D	0.000447
P1Y	2.44
D8R	0.71
E10R	0.901
R6D	-1.16
D12H	1.17

Set 2
Target: Interferon regulatory factor 3, full length, phosphomimetic (IRF3, Homo sapiens, UniProt Q14653, residues 1-427, S386D/S396D/S398D/S402D/T404D/S405D)
Technique: protein-binding microarray
Form: double-stranded DNA, one strand shown
Sample: in vitro
Concentration: 2540 nM top
Setting: 60-bp whole probe
With: salmon DNA 0.4 mg/ml
Reference: random background probes
Direction: higher = stronger binding
All sequences stand within: GCCTAGCAC … GTCTTGATTCGCTTGACGCTGCTG
Target sequence (chain): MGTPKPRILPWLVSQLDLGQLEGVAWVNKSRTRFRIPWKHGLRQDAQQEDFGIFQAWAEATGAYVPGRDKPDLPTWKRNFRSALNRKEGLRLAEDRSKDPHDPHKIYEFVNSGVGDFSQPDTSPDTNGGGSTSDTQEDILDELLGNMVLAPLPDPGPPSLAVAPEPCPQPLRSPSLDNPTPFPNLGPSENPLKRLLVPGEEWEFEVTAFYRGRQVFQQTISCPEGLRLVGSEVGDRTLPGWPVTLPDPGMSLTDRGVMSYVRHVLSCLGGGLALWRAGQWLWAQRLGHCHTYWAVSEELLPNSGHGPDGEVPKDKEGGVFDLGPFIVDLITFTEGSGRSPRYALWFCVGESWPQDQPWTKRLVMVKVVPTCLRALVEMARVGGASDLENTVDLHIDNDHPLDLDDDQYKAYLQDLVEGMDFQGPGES
Strand	fitted relative affinity
GTCGATCTCAGACTGGAGACGTGCTAG	0.988 z-score
TCAGGTTTCCTACTGCTTTAGTGCTAG	4.69 z-score
GACGGTTTCGACAATCGGGACGTGCTA	2.48 z-score
GACGAACTGAGTATCTAGACGTGCTAG	-0.159 z-score
TCATTTTTTTTTCCCTGACTGTGCTAG	1.42 z-score
GACCATCTCATATAAATAGGCGTGCTA	1.5 z-score
GACGGTATTCTTTTCCTGACGTGCTAG	1.96 z-score
ATTGTTTCCTCTTTCACTGCGTGCTAG	4.85 z-score
GTAGGACTGGACACTGGGTTAGTGCTA	-1.1 z-score
TTTGGACTGGGGACTGGGTTAGTGCTA	-0.971 z-score
TTAGGTCTCCTTTTCCTCTAGTGCTAG	5.02 z-score
CACGATCTCAGTCTCGAGACGTGCTAG	0.654 z-score
TTAGGTTTCGACTGTCGGTTAGTGCTA	1.78 z-score
TTAGAAGTGAGTCTCGATTAGTGCTAG	-0.588 z-score

Set 3
Target: Centromere-binding protein 1, full length, N-terminal tag (CBF1, Saccharomyces cerevisiae, UniProt P17106, residues 1-351)
Sequence of UniProt P17106 (whole entry, looked up): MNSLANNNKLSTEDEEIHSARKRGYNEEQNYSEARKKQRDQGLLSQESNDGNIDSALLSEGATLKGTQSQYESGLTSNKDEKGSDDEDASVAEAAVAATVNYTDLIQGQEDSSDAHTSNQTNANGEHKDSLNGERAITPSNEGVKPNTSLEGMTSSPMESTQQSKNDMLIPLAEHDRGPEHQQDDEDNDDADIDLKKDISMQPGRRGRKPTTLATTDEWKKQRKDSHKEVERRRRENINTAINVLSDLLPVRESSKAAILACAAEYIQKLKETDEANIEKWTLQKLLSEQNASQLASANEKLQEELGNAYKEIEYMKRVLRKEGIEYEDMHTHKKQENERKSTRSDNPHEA
Technique: protein-binding microarray
Form: double-stranded DNA, one strand shown
Sample: in vitro
Concentration: 0.8 µM
Setting: whole 60-bp probe, no competitor
Direction: higher = stronger binding
All sequences stand within: … GTCTTGATTCGCTTGACGCTGCTG
Strand	fluorescence intensity [a.u.]
GAATTCACATTGGCTGACGTCGCGCTTTCCTTATAG	485
CTACCTTACGTCGGTGACGACGATATACAGATCTTC	475
CTATGTGACATAATCCACGTTTGTCTCTTATCTTTC	515
GAAGTTAATGGTCGTCCACGTGTGTATACTACATAG	2590
CTATTGGAAACTGGTCACGTGGATGTGAGTCTATTC	13700
GAACCTAACTACGAGCACGTACGTCTAGAATTCTAG	545
CTATAGATTTTGGAGCAACTGATGTGTGTGAGTTTC	516
CTACGAGAAAACTTGCGCGTGCAGTAGGAAAATTTC	757
CTATGTGGAGCAAGCCACGCCATGTGATTAACCTTC	2950
GAAATTGAAACACTTGCCGTGATCAAGATTATATAG	771
CTATGACTAGAGAATCACCTTTTTAGCGAAATATTC	551
GAATCTTCCATTAGCAGCATGATCTTGTGTAGATAG	582
CTATTATATAAATATAGTCAGATGAGTGCTTCATTC	581

Single results of other studies
Molecule	target	assay	test system	conditions	scale	measurement	value
PhoQ, residues 284 288 289 292 302 303 AGGLSV	PhoP, residues 12 14 15 18 19 QQAYL (Escherichia coli, UniProt P23836)	Sort-seq, item: YFP reporter	E. coli	PhoQ-PhoP variant library, with: 10 µM Mg2+	reference: high Mg2+ state, higher = stronger signaling	fold induction	14.2

Excerpt of the above (set 3):
Strand	fluorescence intensity [a.u.]
GAAGTTAATGGTCGTCCACGTGTGTATACTACATAG	2590
CTATTGGAAACTGGTCACGTGGATGTGAGTCTATTC	13700
GAACCTAACTACGAGCACGTACGTCTAGAATTCTAG	545
CTATAGATTTTGGAGCAACTGATGTGTGTGAGTTTC	516
CTACGAGAAAACTTGCGCGTGCAGTAGGAAAATTTC	757
CTATGTGGAGCAAGCCACGCCATGTGATTAACCTTC	2950
